Measurements of several laboratories.
Each line is one published result; not all experiments were run side by side. Numbers after ± are the reported error.
B1: F10 factor Xa (Homo sapiens, UniProt P00742); light ANSFLEEMKKGHLERECMEETCSYEEAREVFEDSDKTNEFWNKYKDGDQCETSPCQNQGKCKDGLGEYTCTCLEGFEGKNCELFTRKLCSLDNGDCDQFCHEEQNSVVCSCARGYTLADNGKACIPTGPYPCGKQTLER; heavy IVGGQECKDGECPWQALLINEENEGFCGGTILSEFYILTAAHCLYQAKRFKVRVGDRNTEQEEGGEAVHEVEVVIKHNRFTKETYDFDIAVLRLKTPITFRMNVAPACLPERDWAESTLMTQKTGIVSGFGRTHEKGRQSTRLKMLEVPYVDRNSCKLSSSFIITQNMFCAGYDTKQEDACQGDSGGPHVTRFKDTYFVTGIVSWGEGCARKGKYGIYTKVTAFLKWIDRSMKTRGLPKAKSHAPEVITSSPLK
B2: FIBH residues 1259-1853 (Bombyx mori); N-terminal Alexa Fluor 488; chain GAGAGSGAGAGSGAGAGSGAGAGSGAGYGAGVGAGYGAGYGAGAGAGYGAGAGSGAGSGAGAGSGAGAGSGAGAGSGAGAGSGAGAGSGAGAGSGAGAGSGAGAGSGAGAGYGAGYGAGAGAGYGAGAGSGAGSGAGAGSGAGAGSGAGAGSGAGAGSGAGAGSGAGAGSGAGAGSGAGAGYGAGVGAGYGAGYGAGAGAGYGAGAGSGAGSGAGAGSGAGAGSGAGAGSGAGVGSGAGAGSGAGAGSGAGAGSGAGAGYGAGYGAGAGAGYGAGAGSGAGSGAGAGSGAGAGSGAGAGSGAGAGSGAGAGSGAGAGSGAGAGSGAGVGYGAGVGAGYGAGYGAGAGAGYGAGAGSGAAS
B3: Cacng2 203-323 (Mus musculus, UniProt O88602); chain DRHKQLRATARATDYLQASAITRIPSYRYRYQRRSRSSSRSTEPSHSRDASPVGVKGFNTLPSTEISMYTLSRDPLKAATTPTATYNSDRDNSFLQVHNCIQKDSKDSLHANTANRRTTPV
B4: Pard6b 1-371 (Mus musculus, UniProt Q9JK83); chain MNRGHRHGASSGCLGTMEVKSKFGAEFRRFSLERSKPGKFEEFYGLLQHVHKIPNVDVLVGYADIHGDLLPINNDDNYHKAVSTANPLLRIFIQKKEEADYSAFGTDTLIRKKNMLSNVLRPDNHRKKPHIVISMPQDFRPVSSIIDVDILPETHRRVRLYKYGTEKPLGFYIRDGSSVRVTPHGLEKVPGIFISRLVPGGLAQSTGLLAVNDEVLEVNGIEVSGKSLDQVTDMMIANSRNLIITVRPANQRNNVVRNSRTSGSSSQSTDNSLLGFPQQVEASFEPEDQDSDEDDIIIEDSGEPQQIPKATPAQSLESLTQIELSFESGQNGFSPPQDTSLVPVPGSLDTELESRAPDQKLLEEDGTIITL
B5: VWF 1484-1677 (Homo sapiens, UniProt P04275); sequence looked up; chain GVSTLGPKRNSMVLDVAFVLEGSDKIGEADFNRSKEFMEEVIQRMDVGQDSIHVTVLQYSYMVTVEYPFSEAQSKGDILQRVREIRYQGGNRTNTGLALRYLSDHSFLVSQGDREQAPNLVYMVTGNPASDEIKRLPGDIQVVPIGVGPNANVQELERIGWPNAPILIQDFETLPREAPDLVLQRCCSGEGLQI
B6: AIPL1 residues 8-end 8-328 (Mus musculus, UniProt Q924K1); C-terminal Avi tag; sequence looked up; chain NVEGVKKTILHGGTGELPSFITGSRVTFHFRTMKCDDERTVIDDSKQVGQPMSIIIGNMFKLEVWETLLTSMRLGEVAEFWCDTIHTGVYPMLSRSLRQVAEGKDPTSWHVHTCGLANMFAYHTLGYEDLDELQKEPQPLVFLIELLQVEAPNEYQRETWNLNNEERMQAVPLLHGEGNRLYKLGRYDQAATKYQEAIVCLRNLQTKEKPWEVEWLKLEKMINTLILNYCQCLLKKEEYYEVLEHTSDILRHHPGIVKAYYMRARAHAEVWNAEEAKADLEKVLELEPSMRKAVLRELRLLESRLADKQEEERQRCRSMLG
B7: NRP1 (Arabidopsis thaliana); chain MVADKSKKSKIEEKGEEENLEQIDAELVLSIEKLQEIQDDLEKINEKASDEVLEVEQKYNVIRKPVYDKRNEVIQSIPGFWMTAFLSHPALGDLLTEEDQKIFKYLNSLEVEDAKDVKSGYSITFHFTSNPFFEDAKLTKTFTFLEEGTTKITATPIKWKEGKGLPNGVNHDDKKGNKRALPEESFFTWFTDAQHKEDAGDEIHDEVADIIKEDLWSNPLTYFNNDADEEDFDGDDDGDEEGEEDDDDEEEEDGEE
B8: designed binder (Homo sapiens); chain MASAARLTMMWEEVTCPICLDPFVEPVSIECGHSFCQECISQVGKGGGSVCPVCRQRFLLKNLRPNRQLANMVNNLKEISQEAREGTQGERCAVHGERLHLFCEKDGKALCWVCAQSRKHRDHAMVPLEEAAQEYQEKLQVALGELRRKQELAEKLEVEIAIKRADWKKTVETQKSRIHAEFVQQKNFLVEEEQRQLQELEKDEREQLRILGEKEAKLAQQSQALQELISELDRRCHSSALELLQEVIIVLERSESWNLKDLDITSPELRSVCHVPGLKKMLRTCAGGGGSGGGGSGGGGSRLDAPSAIRVYRVTDVYAIIYWYVPLAEIDGFELTYGIKDVPGDRTTIKLTEDDSTYVIYRLKPDTEYEVSLISRRGDMSSNPAKITFKTGL
B9: RRP1B 657-758 (Homo sapiens, UniProt Q14684); chain RRAKSSTATHPPGPAVQLNKTPSSSKKVTFGLNRNMTAEFKKTDKSILVSPTGPSRVAFDPEQKPLHGVLKTPTSSPASSPLVAKKPLTTTPRRRPRAMDFF
B10: Flrt3 29-359 (Mus musculus, UniProt Q8BGT1); chain KSCPSVCRCDAGFIYCNDRSLTSIPVGIPEDATTLYLQNNQINNVGIPSDLKNLLKVQRIYLYHNSLDEFPTNLPKYVKELHLQENNIRTITYDSLSKIPYLEELHLDDNSVSAVSIEEGAFRDSNYLRLLFLSRNHLSTIPGGLPRTIEELRLDDNRISTISSPSLHGLTSLKRLVLDGNLLNNHGLGDKVFFNLVNLTELSLVRNSLTAAPVNLPGTSLRKLYLQDNHINRVPPNAFSYLRQLYRLDMSNNNLSNLPQGIFDDLDNITQLILRNNPWYCGCKMKWVRDWLQSLPVKVNVRGLMCQAPEKVRGMAIKDLSAELFDCKDSG
B11: ATG9 1-255 (Saccharomyces cerevisiae, UniProt Q12142); sequence looked up; chain MERDEYQLPNSHGKNTFLSRIFGLQSDEVNPSLNSQEMSNFPLPDIERGSSLLHSTNDSREDVDENDLRVPESDQGTSTEEEDEVDEEQVQAYAPQISDGLDGDHQLNSVTSKENVLETEKSNLERLVEGSTDDSVPKVGQLSSEEEEDNEFINNDGFDDDTPLFQKSKIHEFSSKKSNTIEDGKRPLFFRHILQNNRPQRDTQKLFTSSNAIHHDKDKSANNGPRNINGNQKHGTKYFGSATQPRFTGSPLNNT
B12: EFR3A 721-791 (Homo sapiens, UniProt Q14156); chain SNTEEITFEALKKAIDTSGMEEQEKEKRRLVIEKFQKAPFEEIAAQCESKANLLHDRLAQILELTIRPPPS
B13: DVL2 PDZ domain (Homo sapiens, UniProt O14641); chain NIITVTLNMEKYNFLGISIVGQSNERGDGGIYIGSIMKGGAVAADGRIEPGDMLLQVNDMNFENMSNDDAVRVLRDIVH
B14: clpC N domain 1-150 (Bacillus subtilis, UniProt P37571); chain MMFGRFTERAQKVLALAQEEALRLGHNNIGTEHILLGLVREGEGIAAKALQALGLGSEKIQKEVESLIGRGQEMSQTIHYTPRAKKVIELSMDEARKLGHSYVGTEHILLGLIREGEGVAARVLNNLGVSLNKARQQVLQLLGSNETGSS
Chain of UniProt Q9N5M6 (whole entry, looked up): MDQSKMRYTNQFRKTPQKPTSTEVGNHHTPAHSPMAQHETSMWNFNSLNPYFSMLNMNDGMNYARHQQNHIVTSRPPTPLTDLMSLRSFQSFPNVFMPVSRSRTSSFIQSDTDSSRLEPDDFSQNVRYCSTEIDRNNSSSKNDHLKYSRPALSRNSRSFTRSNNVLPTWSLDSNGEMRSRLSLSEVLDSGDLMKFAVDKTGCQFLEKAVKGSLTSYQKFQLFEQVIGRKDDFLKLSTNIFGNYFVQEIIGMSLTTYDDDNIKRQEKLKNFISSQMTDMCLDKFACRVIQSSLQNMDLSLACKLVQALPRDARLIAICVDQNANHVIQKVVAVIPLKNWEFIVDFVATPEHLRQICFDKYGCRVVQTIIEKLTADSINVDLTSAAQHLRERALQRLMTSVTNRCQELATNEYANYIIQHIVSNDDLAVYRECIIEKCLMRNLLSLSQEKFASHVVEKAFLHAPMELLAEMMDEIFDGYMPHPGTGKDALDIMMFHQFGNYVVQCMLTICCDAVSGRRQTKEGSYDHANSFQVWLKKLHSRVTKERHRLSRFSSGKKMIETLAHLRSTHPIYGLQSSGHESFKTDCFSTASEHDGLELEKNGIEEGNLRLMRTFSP
Chain of UniProt Q23985 (whole entry, looked up): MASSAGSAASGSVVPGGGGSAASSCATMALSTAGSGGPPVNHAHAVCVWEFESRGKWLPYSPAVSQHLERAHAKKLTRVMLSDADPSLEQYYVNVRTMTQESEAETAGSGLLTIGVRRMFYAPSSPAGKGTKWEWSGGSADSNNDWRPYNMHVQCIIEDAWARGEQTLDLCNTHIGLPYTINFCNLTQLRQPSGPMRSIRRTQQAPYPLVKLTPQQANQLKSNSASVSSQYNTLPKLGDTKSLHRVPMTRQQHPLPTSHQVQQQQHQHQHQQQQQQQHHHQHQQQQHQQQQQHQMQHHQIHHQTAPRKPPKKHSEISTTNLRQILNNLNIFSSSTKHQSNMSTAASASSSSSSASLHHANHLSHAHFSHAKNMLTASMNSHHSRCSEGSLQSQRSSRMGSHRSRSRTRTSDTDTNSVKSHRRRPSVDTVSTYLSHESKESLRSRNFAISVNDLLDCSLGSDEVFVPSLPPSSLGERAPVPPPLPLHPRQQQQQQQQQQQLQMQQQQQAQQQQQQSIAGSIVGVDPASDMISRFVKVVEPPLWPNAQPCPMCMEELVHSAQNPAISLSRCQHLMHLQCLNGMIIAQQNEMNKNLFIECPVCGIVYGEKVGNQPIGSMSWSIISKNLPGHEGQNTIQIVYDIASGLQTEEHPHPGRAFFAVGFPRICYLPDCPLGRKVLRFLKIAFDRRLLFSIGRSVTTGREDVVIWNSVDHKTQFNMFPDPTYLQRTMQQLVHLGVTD
Chain of UniProt Q6P1M3 (whole entry, looked up): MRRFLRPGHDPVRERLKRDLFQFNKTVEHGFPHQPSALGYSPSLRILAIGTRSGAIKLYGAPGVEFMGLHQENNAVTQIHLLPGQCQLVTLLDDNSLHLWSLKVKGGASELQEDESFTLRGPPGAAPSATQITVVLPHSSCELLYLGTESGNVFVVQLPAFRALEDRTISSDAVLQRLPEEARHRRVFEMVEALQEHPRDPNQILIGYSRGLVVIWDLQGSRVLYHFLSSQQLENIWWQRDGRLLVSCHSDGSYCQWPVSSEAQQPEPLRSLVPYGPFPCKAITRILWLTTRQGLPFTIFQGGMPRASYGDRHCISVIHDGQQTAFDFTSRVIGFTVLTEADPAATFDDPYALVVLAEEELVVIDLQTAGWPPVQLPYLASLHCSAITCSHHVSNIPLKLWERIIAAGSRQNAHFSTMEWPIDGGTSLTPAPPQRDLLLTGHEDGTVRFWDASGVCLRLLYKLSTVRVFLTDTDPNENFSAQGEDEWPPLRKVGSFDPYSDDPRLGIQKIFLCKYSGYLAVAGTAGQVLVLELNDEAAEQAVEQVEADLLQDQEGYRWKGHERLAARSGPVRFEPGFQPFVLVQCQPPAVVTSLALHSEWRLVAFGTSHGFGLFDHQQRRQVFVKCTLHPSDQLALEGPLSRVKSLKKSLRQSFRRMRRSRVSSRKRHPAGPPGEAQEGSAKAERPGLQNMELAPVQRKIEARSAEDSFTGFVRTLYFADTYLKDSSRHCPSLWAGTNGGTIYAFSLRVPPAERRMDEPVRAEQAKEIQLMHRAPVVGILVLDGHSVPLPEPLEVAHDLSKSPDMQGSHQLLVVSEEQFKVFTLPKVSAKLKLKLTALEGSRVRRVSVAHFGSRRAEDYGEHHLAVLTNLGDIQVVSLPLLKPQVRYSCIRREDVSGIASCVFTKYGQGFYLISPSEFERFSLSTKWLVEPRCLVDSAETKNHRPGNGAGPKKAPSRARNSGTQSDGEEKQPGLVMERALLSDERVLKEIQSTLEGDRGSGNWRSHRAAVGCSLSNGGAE
Chain of UniProt Q06671 (whole entry, looked up): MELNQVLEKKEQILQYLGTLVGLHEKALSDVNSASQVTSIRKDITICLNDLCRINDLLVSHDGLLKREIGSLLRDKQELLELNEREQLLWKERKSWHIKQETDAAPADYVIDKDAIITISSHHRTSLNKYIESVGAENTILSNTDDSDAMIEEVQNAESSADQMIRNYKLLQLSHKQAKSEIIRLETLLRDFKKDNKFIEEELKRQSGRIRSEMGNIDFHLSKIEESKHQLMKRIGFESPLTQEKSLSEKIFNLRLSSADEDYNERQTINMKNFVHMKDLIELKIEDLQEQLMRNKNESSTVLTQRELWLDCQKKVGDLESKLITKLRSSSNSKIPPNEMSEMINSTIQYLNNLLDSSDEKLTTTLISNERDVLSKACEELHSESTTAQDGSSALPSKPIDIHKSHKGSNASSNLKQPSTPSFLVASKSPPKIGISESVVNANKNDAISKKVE
Chain of UniProt Q14669 (whole entry, looked up): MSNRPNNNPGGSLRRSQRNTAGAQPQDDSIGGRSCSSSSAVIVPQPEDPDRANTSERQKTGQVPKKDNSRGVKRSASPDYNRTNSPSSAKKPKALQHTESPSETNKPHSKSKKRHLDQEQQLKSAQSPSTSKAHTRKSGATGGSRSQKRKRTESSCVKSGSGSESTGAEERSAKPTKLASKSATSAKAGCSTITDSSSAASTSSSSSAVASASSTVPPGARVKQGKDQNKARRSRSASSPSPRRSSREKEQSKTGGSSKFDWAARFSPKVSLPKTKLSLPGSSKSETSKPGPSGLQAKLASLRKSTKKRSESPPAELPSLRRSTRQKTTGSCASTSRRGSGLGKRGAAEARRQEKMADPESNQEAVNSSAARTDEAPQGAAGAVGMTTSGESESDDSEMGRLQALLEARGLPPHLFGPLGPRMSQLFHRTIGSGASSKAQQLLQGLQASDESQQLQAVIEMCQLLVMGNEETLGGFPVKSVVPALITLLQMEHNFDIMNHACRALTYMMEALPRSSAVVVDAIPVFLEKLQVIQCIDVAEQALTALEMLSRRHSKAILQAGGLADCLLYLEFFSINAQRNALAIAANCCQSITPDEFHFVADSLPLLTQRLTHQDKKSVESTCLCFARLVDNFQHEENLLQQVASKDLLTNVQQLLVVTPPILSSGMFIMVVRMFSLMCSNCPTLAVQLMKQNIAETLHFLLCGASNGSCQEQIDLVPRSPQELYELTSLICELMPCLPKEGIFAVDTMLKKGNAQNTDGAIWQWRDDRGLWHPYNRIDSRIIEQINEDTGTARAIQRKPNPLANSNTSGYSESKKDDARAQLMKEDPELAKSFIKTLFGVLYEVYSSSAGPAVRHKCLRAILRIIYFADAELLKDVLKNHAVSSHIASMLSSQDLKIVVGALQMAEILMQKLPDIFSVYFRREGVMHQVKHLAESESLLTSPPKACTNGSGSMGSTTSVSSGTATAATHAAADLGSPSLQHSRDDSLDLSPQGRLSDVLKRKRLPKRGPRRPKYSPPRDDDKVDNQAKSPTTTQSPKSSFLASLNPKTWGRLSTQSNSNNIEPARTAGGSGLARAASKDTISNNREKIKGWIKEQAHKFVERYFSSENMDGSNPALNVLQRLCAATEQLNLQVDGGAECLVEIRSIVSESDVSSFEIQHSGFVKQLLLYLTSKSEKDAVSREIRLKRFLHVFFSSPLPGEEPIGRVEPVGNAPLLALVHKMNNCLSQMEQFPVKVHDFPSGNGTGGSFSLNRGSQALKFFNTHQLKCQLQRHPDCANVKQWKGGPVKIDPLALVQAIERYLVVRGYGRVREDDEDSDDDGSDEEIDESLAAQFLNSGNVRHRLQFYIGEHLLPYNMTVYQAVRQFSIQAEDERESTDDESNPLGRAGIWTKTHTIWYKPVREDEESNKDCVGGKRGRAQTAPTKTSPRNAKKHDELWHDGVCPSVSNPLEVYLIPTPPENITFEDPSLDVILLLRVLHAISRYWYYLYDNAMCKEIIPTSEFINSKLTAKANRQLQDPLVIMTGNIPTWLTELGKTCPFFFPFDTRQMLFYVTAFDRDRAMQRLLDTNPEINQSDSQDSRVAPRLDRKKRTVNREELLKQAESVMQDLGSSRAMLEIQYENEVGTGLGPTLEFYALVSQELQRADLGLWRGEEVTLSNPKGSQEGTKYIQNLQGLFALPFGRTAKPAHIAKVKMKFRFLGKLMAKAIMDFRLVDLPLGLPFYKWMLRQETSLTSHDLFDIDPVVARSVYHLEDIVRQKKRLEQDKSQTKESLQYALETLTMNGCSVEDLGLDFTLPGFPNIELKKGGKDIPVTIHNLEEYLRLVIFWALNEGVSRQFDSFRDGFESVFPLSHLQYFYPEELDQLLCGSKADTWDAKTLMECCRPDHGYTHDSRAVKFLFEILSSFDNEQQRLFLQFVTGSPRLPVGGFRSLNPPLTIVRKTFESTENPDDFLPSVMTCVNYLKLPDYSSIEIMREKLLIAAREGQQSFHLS
Chain of UniProt O31597 (whole entry, looked up): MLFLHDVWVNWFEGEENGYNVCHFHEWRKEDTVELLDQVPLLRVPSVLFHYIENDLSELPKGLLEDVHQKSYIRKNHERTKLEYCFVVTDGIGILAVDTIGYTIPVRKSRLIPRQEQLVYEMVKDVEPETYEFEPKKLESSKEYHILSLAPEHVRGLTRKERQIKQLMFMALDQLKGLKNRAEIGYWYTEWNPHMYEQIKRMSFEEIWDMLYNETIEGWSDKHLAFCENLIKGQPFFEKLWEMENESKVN

`B1 (F10 factor Xa)` has a Kd of 1.15 ± 0.2 nM (factor Va 29-334 R506Q (Homo sapiens, UniProt P12259); thrombin generation, prothrombinase activity titration).
`B2 (FIBH residues 1259-1853)` has a Kd of 10.9 ± 0.16 nM (collagen I (Homo sapiens, UniProt P02452); FCS).
With `ENAH EVH1 domain (Homo sapiens)` the Kd was 40200 nM (ABI3 peptide G5P (Homo sapiens); BLI).
The Kd of `SSSPQQRSGLRSQKLHLTYIEKNKRVRAMIPQ (lst-1 67-98 (Caenorhabditis elegans, UniProt P91820); sequence looked up)` is reported as 200 nM (fbf-1 162-573 (Caenorhabditis elegans, UniProt Q9N5M6); ITC; peptide; NaCl 150 mM).
`B3 (Cacng2 203-323)` has a Kd of 900 nM (DLG4 fragment, pS73 (Homo sapiens); ITC).
With `B4 (Pard6b 1-371)` the Kd was 41 nM (LLGL2 13-978, dephosphorylated (Homo sapiens, UniProt Q6P1M3); BLI).
For `IERRRRFNINDRIKELG (TFEB residues 243-259)`, the Kd was 79.2 nM (TRIP12 (Homo sapiens, UniProt Q14669); MST; peptide, 293T, lysate; GFP-tagged).
For `ERBB2 (Homo sapiens, UniProt P04626)`, the Kd was 3.9 nM (trastuzumab IgG, PBS-stressed 21 d, Asn deamidation, HC Asn55, LC Asn30, Fc; SPR).
`B5 (VWF 1484-1677)` gave a Kd of 62.8 nM (VWF A1 domain; MST).
`UMOD EGF-like domains` has a Kd of 628 ± 173 nM (EGFR 25-645 (Homo sapiens, UniProt P00533); MST).
`B6 (AIPL1 residues 8-end 8-328)` has a Kd of 1780 nM (HSP90AB1 full length, AMPPNP-bound (Homo sapiens, UniProt P08238); BLI; 26 °C).
`B7 (NRP1)` gave a Kd of 510 nM (H2A/H2B dimer (Gallus gallus); SPR).
`B8 (designed binder)` has a Kd of 174.2 ± 1.7 nM (MALT1 (Homo sapiens, UniProt Q9UDY8); BLI; designed binder).
`colistin` has an MIC of greater than 64 µg/mL (Serratia fonticola; clinical isolate RKI 517/16).
With `SDLACRLLGQSMDESGLPQLTSYDCEVNAPIQGSRNLLQGEELLRALDQVN (HIF1A 776-826 (Homo sapiens, UniProt Q16665); sequence looked up)` the Kd was 14 nM (Crebbp 340-439 (Mus musculus, UniProt P45481); fluorescence polarisation).
The Kd of `Notch ankyrin domain D81A/R107A (Drosophila)` is reported as 7880 nM (dx (Drosophila melanogaster, UniProt Q23985); AUC).
With `UBE2D2 (Homo sapiens, UniProt P62837)` the Kd was 475000 ± 69000 nM (NEDD4 HECT domain, Cy5 N-terminus (Homo sapiens); MST).
`B9 (RRP1B 657-758)` gave a Kd of 40.4 nM (PPP1CC 7-323 (Homo sapiens, UniProt P36873); ITC).
For `FGA (Homo sapiens, UniProt P02671)`, cross-linked residues read “K467 to K391” (CABIN1 (Homo sapiens, UniProt Q9Y6J0); cross-linking MS; added: DSSO).
For `B10 (Flrt3 29-359)`, the Kd was 15000 nM (UNC5B 27-375 (Homo sapiens, UniProt Q8IZJ1); SPR).
`B11 (ATG9 1-255)` gave a Kd of 1500 nM (ATG23 full-length, dimer (Saccharomyces cerevisiae, UniProt Q06671); BLI).
Under cross-linked residues, `FGB (Homo sapiens, UniProt P02675)` is recorded as “K52 to K558” (AFG3L2 (Homo sapiens, UniProt Q9Y4W6); cross-linking MS; added: DSSO).
With `B12 (EFR3A 721-791)` the Kd was 0.473 nM (TTC7A/FAM126B FAM126B 1-308; BLI).
`B13 (DVL2 PDZ domain)` has a Kd of 28000 nM (FZD7 peptide (Homo sapiens, UniProt O75084); fluorescence anisotropy).
The Kd of `B14 (clpC N domain 1-150)` is reported as 3790 nM (mdfA (Bacillus subtilis, UniProt O31597); ITC).
`KLLMIIHDRREFAKFEKEKMNAKWDTQENPIYKSPINNFKNPNYGRKAGL (ITGB1 752-801 (Homo sapiens, UniProt P05556-5); sequence looked up)` gave a Kd of 54000 nM (Tln2 312-408 S392A (Mus musculus, UniProt Q71LX4); NMR titration).

Repeated from above:
`B3 (Cacng2 203-323)` has a Kd of 900 nM (DLG4 fragment, pS73 (Homo sapiens); ITC).
With `B4 (Pard6b 1-371)` the Kd was 41 nM (LLGL2 13-978, dephosphorylated (Homo sapiens, UniProt Q6P1M3); BLI).
